Experimental data collected from several papers.
LHY full length assumed: LHY full length assumed (Arabidopsis thaliana, UniProt Q6R0H1)
UniProt Q6R0H1, sequence (whole entry, looked up): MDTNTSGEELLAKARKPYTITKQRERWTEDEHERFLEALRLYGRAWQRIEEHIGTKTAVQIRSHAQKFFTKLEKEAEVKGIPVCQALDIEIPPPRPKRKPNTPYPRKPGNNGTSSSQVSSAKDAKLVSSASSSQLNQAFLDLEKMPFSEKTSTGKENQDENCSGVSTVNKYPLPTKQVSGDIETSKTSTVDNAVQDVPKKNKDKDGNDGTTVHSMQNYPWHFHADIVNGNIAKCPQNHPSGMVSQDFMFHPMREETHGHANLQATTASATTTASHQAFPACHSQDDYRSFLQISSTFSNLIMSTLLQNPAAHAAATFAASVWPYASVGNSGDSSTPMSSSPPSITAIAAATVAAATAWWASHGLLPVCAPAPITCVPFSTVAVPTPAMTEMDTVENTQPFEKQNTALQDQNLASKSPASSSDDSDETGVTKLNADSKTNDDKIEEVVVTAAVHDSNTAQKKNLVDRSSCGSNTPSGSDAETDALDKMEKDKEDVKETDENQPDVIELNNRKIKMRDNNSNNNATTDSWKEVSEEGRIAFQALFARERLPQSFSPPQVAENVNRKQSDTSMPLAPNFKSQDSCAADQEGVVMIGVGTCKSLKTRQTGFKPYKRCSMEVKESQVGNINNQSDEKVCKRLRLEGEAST
Rc3h1: Rc3h1 411-454 (Mus musculus, UniProt Q4VGL6)
UniProt Q4VGL6, sequence (whole entry, looked up): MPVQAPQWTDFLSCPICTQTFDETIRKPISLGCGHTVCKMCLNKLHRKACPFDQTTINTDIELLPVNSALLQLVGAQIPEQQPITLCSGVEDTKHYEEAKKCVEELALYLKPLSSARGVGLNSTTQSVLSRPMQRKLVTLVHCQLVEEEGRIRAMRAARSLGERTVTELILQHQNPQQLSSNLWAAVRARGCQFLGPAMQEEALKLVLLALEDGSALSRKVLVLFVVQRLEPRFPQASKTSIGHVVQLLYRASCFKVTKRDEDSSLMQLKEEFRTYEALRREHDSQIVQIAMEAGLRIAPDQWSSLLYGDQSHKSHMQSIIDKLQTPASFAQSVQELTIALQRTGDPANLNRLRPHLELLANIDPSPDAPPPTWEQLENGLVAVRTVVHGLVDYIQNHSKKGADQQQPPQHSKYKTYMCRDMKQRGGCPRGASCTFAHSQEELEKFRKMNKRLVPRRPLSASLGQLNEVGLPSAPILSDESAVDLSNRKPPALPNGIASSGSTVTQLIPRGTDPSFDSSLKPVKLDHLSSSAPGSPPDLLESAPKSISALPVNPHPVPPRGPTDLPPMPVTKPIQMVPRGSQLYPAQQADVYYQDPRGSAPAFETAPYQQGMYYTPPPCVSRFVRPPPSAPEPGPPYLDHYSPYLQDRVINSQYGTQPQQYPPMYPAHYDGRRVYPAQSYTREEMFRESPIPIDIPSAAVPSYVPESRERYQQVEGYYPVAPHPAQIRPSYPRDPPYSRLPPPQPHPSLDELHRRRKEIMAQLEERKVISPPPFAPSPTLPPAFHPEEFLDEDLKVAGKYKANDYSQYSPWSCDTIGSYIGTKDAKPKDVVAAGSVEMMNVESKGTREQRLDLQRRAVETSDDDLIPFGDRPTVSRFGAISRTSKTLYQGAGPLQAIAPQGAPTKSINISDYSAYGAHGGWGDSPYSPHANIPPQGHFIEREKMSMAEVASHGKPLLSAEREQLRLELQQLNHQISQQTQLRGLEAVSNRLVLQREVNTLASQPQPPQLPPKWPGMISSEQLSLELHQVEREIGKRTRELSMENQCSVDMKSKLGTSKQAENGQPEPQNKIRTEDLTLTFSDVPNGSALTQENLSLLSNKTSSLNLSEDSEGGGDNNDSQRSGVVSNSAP
T1: xseA/xseB 1-456;1-80 H238A (Escherichia coli); chain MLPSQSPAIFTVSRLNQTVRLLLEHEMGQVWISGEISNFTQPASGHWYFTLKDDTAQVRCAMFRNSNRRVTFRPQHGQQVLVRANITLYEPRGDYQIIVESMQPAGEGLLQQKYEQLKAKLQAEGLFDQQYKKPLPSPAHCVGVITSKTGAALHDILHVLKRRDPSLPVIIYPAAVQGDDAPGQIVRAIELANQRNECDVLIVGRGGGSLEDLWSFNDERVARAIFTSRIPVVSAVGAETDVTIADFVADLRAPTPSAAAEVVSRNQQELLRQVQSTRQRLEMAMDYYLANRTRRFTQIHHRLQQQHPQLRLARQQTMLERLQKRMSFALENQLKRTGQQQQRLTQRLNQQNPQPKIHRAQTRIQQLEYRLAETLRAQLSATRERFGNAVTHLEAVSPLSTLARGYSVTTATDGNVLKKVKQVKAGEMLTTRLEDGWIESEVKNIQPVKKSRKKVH; chain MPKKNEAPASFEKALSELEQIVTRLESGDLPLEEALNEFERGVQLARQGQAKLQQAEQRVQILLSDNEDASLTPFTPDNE
T2: Yku70/Yku80 (Saccharomyces cerevisiae); chain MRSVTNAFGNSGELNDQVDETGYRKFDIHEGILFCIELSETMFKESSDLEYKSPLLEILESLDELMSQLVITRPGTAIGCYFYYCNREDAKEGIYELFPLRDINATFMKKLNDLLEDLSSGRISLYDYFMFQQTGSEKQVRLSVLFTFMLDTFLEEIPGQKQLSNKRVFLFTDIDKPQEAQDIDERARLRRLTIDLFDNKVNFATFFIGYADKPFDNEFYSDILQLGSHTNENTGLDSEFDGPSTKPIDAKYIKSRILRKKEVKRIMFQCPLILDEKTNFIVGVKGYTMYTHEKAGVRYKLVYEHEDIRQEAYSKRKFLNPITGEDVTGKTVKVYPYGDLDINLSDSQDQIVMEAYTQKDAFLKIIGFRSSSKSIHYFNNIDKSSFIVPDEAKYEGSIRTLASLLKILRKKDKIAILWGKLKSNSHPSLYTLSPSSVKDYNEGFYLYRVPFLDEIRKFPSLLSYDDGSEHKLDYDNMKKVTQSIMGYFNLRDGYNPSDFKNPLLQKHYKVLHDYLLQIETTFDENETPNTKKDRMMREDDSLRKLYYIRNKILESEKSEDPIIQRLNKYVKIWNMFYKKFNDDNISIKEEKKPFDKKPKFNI; chain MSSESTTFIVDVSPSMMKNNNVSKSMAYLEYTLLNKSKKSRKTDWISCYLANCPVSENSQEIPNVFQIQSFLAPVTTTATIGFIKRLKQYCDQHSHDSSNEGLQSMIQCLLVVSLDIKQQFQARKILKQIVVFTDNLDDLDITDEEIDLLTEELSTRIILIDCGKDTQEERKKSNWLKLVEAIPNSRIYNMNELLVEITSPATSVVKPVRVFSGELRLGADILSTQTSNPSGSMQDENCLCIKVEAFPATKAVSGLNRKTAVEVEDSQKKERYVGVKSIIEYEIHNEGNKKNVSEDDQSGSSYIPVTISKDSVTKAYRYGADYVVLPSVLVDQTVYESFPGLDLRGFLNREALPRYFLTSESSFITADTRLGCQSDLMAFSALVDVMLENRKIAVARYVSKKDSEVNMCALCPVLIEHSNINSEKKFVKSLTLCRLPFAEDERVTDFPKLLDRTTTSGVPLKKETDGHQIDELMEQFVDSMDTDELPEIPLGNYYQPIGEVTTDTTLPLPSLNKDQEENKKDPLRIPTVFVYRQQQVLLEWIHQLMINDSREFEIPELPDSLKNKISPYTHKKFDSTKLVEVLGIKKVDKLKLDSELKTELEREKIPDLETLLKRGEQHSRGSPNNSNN
UniProt P14780, sequence (whole entry, looked up): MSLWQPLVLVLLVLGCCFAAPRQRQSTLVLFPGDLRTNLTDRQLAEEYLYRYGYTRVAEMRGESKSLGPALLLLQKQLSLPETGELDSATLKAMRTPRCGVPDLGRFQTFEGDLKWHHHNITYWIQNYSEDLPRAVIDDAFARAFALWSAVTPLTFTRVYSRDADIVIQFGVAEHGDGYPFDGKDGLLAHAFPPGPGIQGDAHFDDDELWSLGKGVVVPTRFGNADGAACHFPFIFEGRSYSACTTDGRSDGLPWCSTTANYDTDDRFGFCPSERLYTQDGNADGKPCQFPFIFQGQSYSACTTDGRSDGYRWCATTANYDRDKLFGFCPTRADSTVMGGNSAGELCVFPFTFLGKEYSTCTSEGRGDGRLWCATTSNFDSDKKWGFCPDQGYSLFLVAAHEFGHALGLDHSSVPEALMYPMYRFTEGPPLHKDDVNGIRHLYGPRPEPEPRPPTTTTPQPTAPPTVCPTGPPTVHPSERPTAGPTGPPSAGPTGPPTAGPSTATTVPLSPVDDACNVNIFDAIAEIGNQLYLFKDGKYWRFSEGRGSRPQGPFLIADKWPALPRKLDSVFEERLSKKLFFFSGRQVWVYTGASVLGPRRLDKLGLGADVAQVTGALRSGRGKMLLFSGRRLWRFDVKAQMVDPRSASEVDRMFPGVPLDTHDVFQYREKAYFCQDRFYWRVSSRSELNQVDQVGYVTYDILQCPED
UniProt P32797, sequence (whole entry, unmodified, looked up): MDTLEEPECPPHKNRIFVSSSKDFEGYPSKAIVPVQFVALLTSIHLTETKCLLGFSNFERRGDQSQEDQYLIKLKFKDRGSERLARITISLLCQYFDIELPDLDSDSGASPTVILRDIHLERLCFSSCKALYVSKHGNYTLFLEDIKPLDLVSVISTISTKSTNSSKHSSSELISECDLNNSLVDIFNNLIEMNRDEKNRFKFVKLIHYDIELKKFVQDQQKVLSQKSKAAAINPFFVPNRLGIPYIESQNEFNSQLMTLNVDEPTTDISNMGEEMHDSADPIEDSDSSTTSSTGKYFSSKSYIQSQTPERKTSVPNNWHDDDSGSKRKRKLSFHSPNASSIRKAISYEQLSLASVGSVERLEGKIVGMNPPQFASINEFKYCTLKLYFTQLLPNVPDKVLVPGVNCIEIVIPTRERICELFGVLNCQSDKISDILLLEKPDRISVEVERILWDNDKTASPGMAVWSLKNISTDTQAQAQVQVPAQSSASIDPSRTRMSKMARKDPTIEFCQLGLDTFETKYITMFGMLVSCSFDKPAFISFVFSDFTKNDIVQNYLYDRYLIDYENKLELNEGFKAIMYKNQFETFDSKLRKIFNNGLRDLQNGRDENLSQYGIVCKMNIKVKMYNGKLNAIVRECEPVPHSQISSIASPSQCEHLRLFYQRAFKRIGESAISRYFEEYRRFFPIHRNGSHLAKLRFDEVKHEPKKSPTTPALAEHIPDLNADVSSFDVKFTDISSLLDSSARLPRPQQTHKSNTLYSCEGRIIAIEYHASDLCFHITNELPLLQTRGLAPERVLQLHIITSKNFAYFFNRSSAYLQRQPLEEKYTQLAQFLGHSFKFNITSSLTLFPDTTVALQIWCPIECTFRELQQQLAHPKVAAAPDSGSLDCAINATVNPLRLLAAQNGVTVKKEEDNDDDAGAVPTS
UniProt Q15109, sequence (whole entry, looked up): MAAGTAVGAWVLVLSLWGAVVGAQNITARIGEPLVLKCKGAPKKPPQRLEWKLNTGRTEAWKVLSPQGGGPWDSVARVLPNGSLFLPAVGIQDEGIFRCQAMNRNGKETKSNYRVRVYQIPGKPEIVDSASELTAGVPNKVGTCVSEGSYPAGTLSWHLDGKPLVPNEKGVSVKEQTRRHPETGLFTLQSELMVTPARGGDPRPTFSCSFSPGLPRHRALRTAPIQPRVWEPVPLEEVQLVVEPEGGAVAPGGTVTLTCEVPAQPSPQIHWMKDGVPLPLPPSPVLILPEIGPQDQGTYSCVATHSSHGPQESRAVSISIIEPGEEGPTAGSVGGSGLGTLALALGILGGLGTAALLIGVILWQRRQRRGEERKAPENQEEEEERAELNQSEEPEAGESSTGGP
UniProt P25454, sequence (whole entry, looked up): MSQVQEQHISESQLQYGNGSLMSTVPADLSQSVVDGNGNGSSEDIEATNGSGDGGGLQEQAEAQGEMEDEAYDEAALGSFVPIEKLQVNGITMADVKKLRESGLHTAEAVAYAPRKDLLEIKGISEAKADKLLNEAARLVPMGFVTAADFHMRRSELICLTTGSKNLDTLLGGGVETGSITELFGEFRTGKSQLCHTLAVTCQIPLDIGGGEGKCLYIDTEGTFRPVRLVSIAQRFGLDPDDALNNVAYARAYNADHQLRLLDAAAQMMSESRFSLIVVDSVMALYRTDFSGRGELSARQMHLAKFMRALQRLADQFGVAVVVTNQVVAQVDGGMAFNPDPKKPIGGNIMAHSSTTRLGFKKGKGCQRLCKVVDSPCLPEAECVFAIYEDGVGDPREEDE
UniProt P0A7G6, sequence (whole entry, unmodified, looked up): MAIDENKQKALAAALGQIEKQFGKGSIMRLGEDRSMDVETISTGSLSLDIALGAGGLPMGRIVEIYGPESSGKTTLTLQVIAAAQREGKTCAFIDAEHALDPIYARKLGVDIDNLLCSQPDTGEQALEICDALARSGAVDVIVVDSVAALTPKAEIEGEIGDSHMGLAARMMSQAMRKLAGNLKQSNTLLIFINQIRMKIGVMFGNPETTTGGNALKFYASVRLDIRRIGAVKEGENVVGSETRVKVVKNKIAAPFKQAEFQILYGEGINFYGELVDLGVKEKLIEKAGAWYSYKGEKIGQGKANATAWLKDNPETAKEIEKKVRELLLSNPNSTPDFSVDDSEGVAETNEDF
UniProt Q9SM50, sequence (whole entry, looked up): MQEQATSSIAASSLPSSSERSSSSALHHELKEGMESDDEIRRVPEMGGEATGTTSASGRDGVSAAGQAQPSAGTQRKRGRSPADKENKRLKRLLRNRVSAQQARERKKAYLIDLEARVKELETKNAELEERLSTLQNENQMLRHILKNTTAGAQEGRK
UniProt Q13YL3, sequence (whole entry, looked up): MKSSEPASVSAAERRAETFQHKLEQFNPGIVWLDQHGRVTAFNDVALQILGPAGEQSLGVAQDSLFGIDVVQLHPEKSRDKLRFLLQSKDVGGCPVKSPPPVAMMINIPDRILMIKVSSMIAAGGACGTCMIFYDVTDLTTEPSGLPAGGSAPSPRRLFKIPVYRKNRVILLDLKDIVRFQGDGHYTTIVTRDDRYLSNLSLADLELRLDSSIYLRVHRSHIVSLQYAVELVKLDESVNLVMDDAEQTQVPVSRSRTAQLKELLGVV

Substance	target or system	test	system	conditions	scale	quantity	value
GCAGCUCGGGGAUCAUGGCCCACUGAACCCCCAAGCGC (structured RNA)	RELA/NFKB1 RHR domains (Homo sapiens)	EMSA	folded RNA	–	–	binding	binds
TATTTTTAAAACAAAAATATATTAACCCCCCGAGAAAACTAAAATCTAAAATCTAGAAAC (dsDNA)	LHY full length assumed	EMSA	double-stranded DNA, one strand shown	–	–	binding	no binding
GGACGGAAAGACCCCGUGG (ssRNA)	AGER 23-342 (Homo sapiens, UniProt Q15109)	EMSA	RNA	–	–	binding	binds
TCGATTTTCGCGCAAATT (dsDNA; blunt)	rcoM1 full length assumed (Paraburkholderia xenovorans, UniProt Q13YL3)	fluorescence anisotropy	double-stranded DNA, one strand shown	Fe(II)-CO	–	binding	no binding
GGTGGTGGTGGTGGTGGT (ssDNA)	recA full length assumed F204Q (Escherichia coli, UniProt P0A7G6)	fluorescence anisotropy	single-stranded DNA	added: ATPγS	–	binding	binds
GGTTAGGGTTAGGGTTAGGGTTAG (ssDNA; 5'-phosphate)	Pot1 1-301 (Mus musculus, UniProt Q91WC1)	EMSA	single-stranded DNA	–	–	binding	binds
AGCGTGTTTTTTTTTTTTTTTTTTTTTTTTTTTTTTTTTTTTTTTTTTTTTTTTTTTTTTTTTTTTTTTTTTTTAGCGTG (ssDNA)	T1, xseA/xseB 1-456;1-80 H238A (Escherichia coli)	competition fluorescence anisotropy	single-stranded DNA	–	–	binding	binds
CGCCATGCTGATCCGTGTGGTGTGTGTGGG (ssDNA (Saccharomyces cerevisiae))	CDC13 231-924 (Saccharomyces cerevisiae, UniProt P32797)	BLI	single-stranded DNA	–	–	binding	binds
TCTCCTTTTTGTTTGACAGTGATCCAAAAA (dsDNA)	WRKY domain-containing protein 1-253 (Triticum aestivum, UniProt A0A3B5Y6J9)	EMSA	double-stranded DNA, one strand shown	–	–	binding	binds
SVWLRKETRV	human SCRIB PDZ3-4 tandem (MBP fusion)	surface plasmon resonance	peptide	concentration not given	higher = stronger binding	normalised SPR binding response	107 normalised RU
CTCATTACACAGTCTTAGTCACATCGGTGAAAATATCAATTAATATTCCCCAGAAAGTTG (dsDNA)	LHY full length assumed	EMSA	double-stranded DNA, one strand shown	–	–	binding	binds
TTATTATT (ssDNA)	Rc3h1	NMR	single-stranded DNA	–	–	binding	binds
ACCAAGCGGGAAGCGGAGCCGCCGCCGCCGCCG (dsDNA; blunt)	WT1 zinc finger domain 323-435 (Homo sapiens)	EMSA	double-stranded DNA, one strand shown	–	–	binding	no binding
DNA 1 GGATCTCGACGCTCTCCCTT / DNA 2 GAGAGCGTCGAGATCC (dsDNA; 3' 4-nt overhang, blunt end)	RECQL 49-616 D230A/R232A (Homo sapiens, UniProt P46063)	fluorescence anisotropy	double-stranded DNA	Mg2+ 5 mM, added: ADPNP 2 mM	–	binding	no binding
GSGAGPETLV	human MAGI1-3/6 PDZ construct (MBP fusion)	automated holdup	peptide, crude extract	concentration not given, corrected by standard peak, unit not given	baseline: biotin control resin, higher = stronger binding	binding intensity	0.595
CATAATGTAATATATAATAATCATATAGTAATATAATTTTCATTC (dsDNA)	gbp (Glycine max, UniProt Q8LKV1)	EMSA	double-stranded DNA, one strand shown	–	–	binding	no binding
TGCCATAGAATCTCGACTATCGCAAAT (ssDNA)	gene 32 protein 1-301 (bacteriophage T4, UniProt P03695)	EMSA	single-stranded DNA	10 mM, added: Mg2+	–	binding	binds
TTATTCGAATTTTTAAGCGACTCGAATTGTATAA (dsDNA)	Transcription factor MYB33 isoform X1 1-556 (Gossypium hirsutum, UniProt A0A1U8PAG7)	EMSA	double-stranded DNA, one strand shown	–	–	binding	no binding
ACGAGCGTTGCACGTGTATTCCCAAT (dsDNA)	HY5 full length assumed (Solanum lycopersicum, UniProt Q9SM50)	EMSA	double-stranded DNA, one strand shown	–	–	binding	binds
CGCGCGCGCGCGCGCG (XNA; LNA self-complementary duplex)	ADAR 133-199 (Homo sapiens, UniProt P55265)	EMSA	modified nucleic acid, one strand shown	–	–	binding	binds
ATAAGTCACATGATGATATTTGATTTTATTATATTTTTAAAAAAAGTAAAAAATAAAAAGTAGTTTATTTTTAAAAAATAAAATTTAAAATATTTCACAAAATGATTTCCGAA (dsDNA)	CENP-I 1-683 (Thermochaetoides thermophila, UniProt G0SFF7)	EMSA	double-stranded DNA, one strand shown	–	–	binding	binds

Substance	target or system	test	system	conditions	scale	quantity	value
GCCAAUUUCGCCGGCGUACGGCCACGAUCGGGAGGGUGGGAAUCUCGGGGGUCUUCCGAUCCUAAUCCAUGAUGAUUACGACCUGAGUCACUAAAGACGAUGGCAUGAUGAUCCGGCGAUGAAAAA (RNA (Bombyx mori); single stem-loop)	Reverse transcriptase-like protein 275-1114 R310A/R311A/Q318A/D996A (Bombyx mori, UniProt V9H052)	EMSA	folded RNA	–	–	binding	binds
colistin	Escherichia coli	broth microdilution	clinical isolate RKI-No 131/08	–	–	MIC	0.5 µg/mL
TGTTGTGTGGAATTGTGAGCGGATAACAATTTCACACAGG (dsDNA (Escherichia coli); blunt)	lacI full length assumed D149A (Escherichia coli, UniProt P03023)	filter binding	double-stranded DNA, one strand shown	–	–	binding	binds
GGGCGAAUUCUGCUCCACGGCGGCACCUACUGCUCCACGGCGGCACCUACUGCUCCACGGCGGCACCUACA (ssRNA)	GPATCH4 full length assumed (Homo sapiens, UniProt Q5T3I0)	pull-down	RNA	radiolabelled RNA, denaturing PAGE readout	–	binding	binds
DNA 1 ATTGCCGATGC / DNA 2 CCGCAGGCTCC / DNA 3 GGAGCCTGCGGGCATCGGCAAT (dsDNA; blunt, internal nick)	ddrC 1-231 (Deinococcus radiodurans, UniProt Q9RYE6)	EMSA	double-stranded DNA	100 nM	–	binding	binds
TTGATAAGAGGTCATTTTTGCGGATGGCTTAGAGCTTAATTGCTGAATCTGGTGCTGTAGCTCAACATGTTTTAA (ssDNA)	MGM101 23-269 (Saccharomyces cerevisiae, UniProt P32787)	native MS	single-stranded DNA	–	–	binding	binds
TAATTTTAAACAAAATATTAACAATTCCCCGCGAACCCTTGTGAATAATATTTAAAACTT (dsDNA)	LHY full length assumed	EMSA	double-stranded DNA, one strand shown	–	–	binding	no binding
TGGTTGTTTGTTTGCCGTTGGAGGTCTTTGTGTTGGATG (ssDNA; 5'-phosphate)	MMP9 20-707 (Homo sapiens, UniProt P14780)	ELASA	single-stranded DNA	–	–	binding	no binding
CAGCCAACTAAACTA (dsDNA)	tnsD 1-318 (Escherichia coli, UniProt P13991)	EMSA	double-stranded DNA, one strand shown	–	–	binding	no binding
ACCAAGCGGGATTCGGAGCCGCCGCCGCCGCCG (dsDNA; blunt)	WT1 zinc finger domain 323-435 (Homo sapiens)	EMSA	double-stranded DNA, one strand shown	–	–	binding	no binding
AATTCTCATTTTACTTACCGGACGCTATTAGCAGTGAAAATTTCCTGATAGTCGTCACCGCGTTTTGCGCACTCTTTCTCGTAGGTACTCAGTCCG (ssDNA)	RAD51 full length assumed (Saccharomyces cerevisiae, UniProt P25454)	cryo-EM	single-stranded DNA	added: ATP	–	binding	binds
GAACAUAGAAAGAGAGAGAUAUAAA (ssRNA; m6A position 3)	ECT2 full length assumed (Arabidopsis thaliana, UniProt Q9LJE5)	EMSA	RNA	–	–	binding	binds
GGTTAGGGTTAG (ssDNA; 5'-phosphate)	POT1 1-299 R83A (Homo sapiens, UniProt Q9NUX5)	EMSA	single-stranded DNA	–	–	binding	binds
UGUACAUA (ssRNA)	pum 1091-1426 (Drosophila melanogaster, UniProt P25822)	crystal structure	RNA	–	–	binding	binds
TTATATTT (ssDNA)	Rc3h1	NMR	single-stranded DNA	–	–	binding	binds
GAGCTGCAAGTGGATATTTGGACCTCTTTGAGGTCTTCGTTGGAAACGGGATTTCCTCATATAATGTTACACAGAAGAATTCTCAGTAACTTATTTGTGGTGTGTGTATTCAACTCACAGAGGTGAACCTTCCTTCAGAAAGAGCAGATTTGAAACACTCTTTTTGTACCC (dsDNA)	CENPI 57-281 (Homo sapiens, UniProt Q92674)	EMSA	double-stranded DNA, one strand shown	–	–	binding	binds
AAGGTGTGTGGGTGTGA (dsDNA)	T2, Yku70/Yku80 (Saccharomyces cerevisiae)	EMSA	double-stranded DNA, one strand shown	–	–	binding	binds
CACTATCGGAAAAAGGGCGACACGGATATGTT (ssDNA)	SAMHD1 full length assumed (Homo sapiens, UniProt Q9Y3Z3)	fluorescence anisotropy	single-stranded DNA	–	–	binding	binds
GTGTGGTTAATATGGTGTGGTTAATATGGTGTGGTTAATATGGTGTGGTTAATATG (dsDNA)	RNJ 604-911 W821A (Arabidopsis thaliana, UniProt Q84W56)	EMSA	double-stranded DNA, one strand shown	–	–	binding	no binding
DNA 1 AAGGTGTGTGGGTGTGGTAATTTT / DNA 2 ATTACCACACCCACACACCTT (dsDNA; 3' 3 nt overhang)	RAP1/Yku70/Yku80 (Saccharomyces cerevisiae)	EMSA	double-stranded DNA	–	–	binding	binds
CCACGACAGTTACGTATGAACCTTTG (dsDNA)	HY5/CaM2 1-158; 1-149 (Solanum lycopersicum)	EMSA	double-stranded DNA, one strand shown	added: CaCl2 5 mM	–	binding	binds

A few entries again:
Substance	target or system	test	system	conditions	scale	quantity	value
GTGTGGTTAATATGGTGTGGTTAATATGGTGTGGTTAATATGGTGTGGTTAATATG (dsDNA)	RNJ 604-911 W821A (Arabidopsis thaliana, UniProt Q84W56)	EMSA	double-stranded DNA, one strand shown	–	–	binding	no binding
DNA 1 GGATCTCGACGCTCTCCCTT / DNA 2 GAGAGCGTCGAGATCC (dsDNA; 3' 4-nt overhang, blunt end)	RECQL 49-616 D230A/R232A (Homo sapiens, UniProt P46063)	fluorescence anisotropy	double-stranded DNA	Mg2+ 5 mM, added: ADPNP 2 mM	–	binding	no binding
GGTTAGGGTTAG (ssDNA; 5'-phosphate)	POT1 1-299 R83A (Homo sapiens, UniProt Q9NUX5)	EMSA	single-stranded DNA	–	–	binding	binds
